Experimental data pooled from the literature.
Lines come from different studies, so protocols differ.
Method: steady-state kinetics
B1: spt (Sphingomonas paucimobilis, UniProt Q93UV0); chain TEAAAQPHALPADAPDIAPERDLLSKFDGLIAERQKLLDSGVTDPFAIVMEQVKSPTEAVIRGKDTILLGTYNYMGMTFDPDVIAAGKEALEKFGSGTNGSRMLNGTFHDHMEVEQALRDFYGTTGAIVFSTGYMANLGIISTLAGKGEYVILDADSHASIYDGCQQGNAEIVRFRHNSVEDLDKRLGRLPKEPAKLVVLEGVYSMLGDIAPLKEMVAVAKKHGAMVLVDEAHSMGFFGPNGRGVYEAQGLEGQIDFVVGTFSKSVGTVGGFVVSNHPKFEAVRLACRPYIFTASLPPSVVATATTSIRKLMTAHEKRERLWSNARALHGGLKAMGFRLGTETCDSAIVAVMLEDQEQAAMMWQALLDGGLYVNMARPPATPAGTFLLRCSICAEHTPAQIQTVLGMFQAAGRAVGVIG
B2: nudC (Escherichia coli, UniProt P32664); chain MDRIIEKLDHGWWVVSHEQKLWLPKGELPYGEAANFDLVGQRALQIGEWQGEPVWLVQQQRRHDMGSVRQVIDLDVGLFQLAGRGVQLAEFYRSHKYCGYCGHEMYPSKTEWAMLCSHCRERYYPQIAPCIIVAIRRDDSILLAQHTRHRNGVHTVLAGFVEVGETLEQAVAREVMEESGIKVKNLRYVTSQPWPFPQSLMTAFMAEYDSGDIVIDPKELLEANWYRYDDLPLLPPPGTVARRLIEDTVAMCRAEYE
B3: enzyme K234A (Methanosarcina mazei, UniProt Q8PVB1); chain MSEQRSVPLREHLLALKPCRHGGLIQETSETYGIPENEILDFSANFNPLGSPFDYPENGLNFEDIIKKSCGKLLEYPDNRYVEFREAAARFVGLGVTPQSIVPGNGSTEIVRLVVESVIEKGDKVLLPWPTFGEYEMQCRITGAEPVCPSQEEVNTLPDEVLEEAKILFICNPNNPTGKLRTREELKVLAERCREHKTLLYVDEAFIELSDPSQSVADLPAENNYVFVMRSLTADFAIPGIRMGFGIAPPAMADILNTARLSWNLGAIANNTGIALLNIEGGIDSPYLKKAREMILKEGETLKAKIDRIRGFEAGEVNVNFILVDVSKFMLNSSELTARLAARGVLVRDCVSFHGLGKNYIRVAVRTEKENDRLIAAIGDVITEWGREQAKNELQHVIEKASEEGIGGRKTCEYYPCHFEGQNCTFCFCPFYPCENEKTGGKWIQSSRGGRVWSCVDCHLVHKKEIAQKILDCLMHEGDTDELVKVAWKEVMEPIL
B4: RABE1C (Arabidopsis thaliana, UniProt P28186); chain MAAPPARARADYDYLIKLLLIGDSGVGKSCLLLRFSDGSFTTSFITTIGIDFKIRTIELDGKRIKLQIWDTAGQERFRTITTAYYRGAMGILLVYDVTDESSFNNIRNWIRNIEQHASDNVNKILVGNKADMDESKRAVPTAKGQALADEYGIKFFETSAKTNLNVEEVFFSIGRDIKQRLSDTDSRAEPATIKISQTDQAAGAGQATQKSACCGT
B5: pdc (Zymomonas mobilis, UniProt P06672); chain MSYTVGTYLAERLVQIGLKHHFAVAGDYNLVLLDNLLLNKNMEQVYCCNELNCGFSAEGYARAKGAAAAVVTYSVGALSAFDAIGGAYAENLPVILISGAPNNNDHAAGHVLHHALGKTDYHYQLEMAKNITAAAEAIYTPEEAPAKIDHVIKTALREKKPVYLEIACNIASMPCAAPGPASALFNDEASDEASLNAAVEETLKFIANRDKVAVLVGSKLRAAGAEEAAVKFADALGGAVATMAAAKSFFPEENPHYIGTSWGEVSYPGVEKTMKEADAVIALAPVFNDYSTTGWTDIPDPKKLVLAEPRSVVVNGIRFPSVHLKDYLTRLAQKVSKKTGALDFFKSLNAGELKKAAPADPSAPLVNAEIARQVEALLTPNTTVIAETGDSWFNAQRMKLPNGARVEYEMQWGHIGWSVPAAFGYAVGAPERRNILMVGDGSFQLTAQEVAQMVRLKLPVIIFLINNYGYTIEVMIHDGPYNNIKNWDYAGLMEVFNGNGGYDSGAGKGLKAKTGGELAEAIKVALANTDGPTLIECFIGREDCTEELVKWGKRVAAANSRKPVNKLL
B6: pyrB (Escherichia coli, UniProt P0A786); chain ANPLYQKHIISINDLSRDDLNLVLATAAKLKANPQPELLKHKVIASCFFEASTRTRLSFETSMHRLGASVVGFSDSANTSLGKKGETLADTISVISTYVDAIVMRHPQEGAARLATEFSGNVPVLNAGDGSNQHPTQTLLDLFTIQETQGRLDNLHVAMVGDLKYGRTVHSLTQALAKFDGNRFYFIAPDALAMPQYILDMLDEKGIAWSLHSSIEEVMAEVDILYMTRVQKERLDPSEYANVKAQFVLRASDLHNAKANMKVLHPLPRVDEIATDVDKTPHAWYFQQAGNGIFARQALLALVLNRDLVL
B7: enzyme E11H/K10H/Q8H (Geobacillus stearothermophilus, UniProt P42328); chain MKAAVVEHFHHPLKIKEVEKPTISYGEVLVRIKACGVCHTDLHAAHGDWPVKPKLPLIPGHEGVGIVEEVGPGVTHLKVGDRVGIPWLYSACGHCDYCLSGQETLCEHQKNAGYSVDGGYAEYCRAAADYVVKIPDNLSFEEAAPIFCAGVTTYKALKVTGAKPGEWVAIYGIGGLGHVAVQYAKAMGLNVVAVDIGDEKLELAKELGADLVVNPLKEDAAKFMKEKVGGVHAAVVTAVSKPAFQSAYNSIRRGGACVLVGLPPEEMPIPIFDTVLNGIKIIGSIVGTRKDLQEALQFAAEGKVKTIIEVQPLEKINEVFDRMLKGQINGRVVLTLEDK
B8: enzyme (UniProt A0A063Y6V3); chain MNTRVAIIGAGPCGLAQLRAFQSAAAKGAAIPELVCFEKQSDWGGMWNYTWRTGVDEHGEPVHGSMYRYLWSNGPKECLEFADYTFDEHFGRPIGSYPPREVLWDYIKGRVEKAGVRDYIRFNTAVRQVSYDETSGLFSVTVQDHSNNRVYTETFDYVVNACGHFSTPNTPYFEGFERFGGRVLHAHDFRDALEFKDKDILVVGSSYSAEDIGSQCYKYGARSITSCYRSAPMGYQWPQNWEEKPLLQRVDSDTAWFADGSHKRIDAIILCTGYQHHFPFLPDSLRLITENRLWPLKLYKGIFWEDNPKFLYLGMQDQWYSFNMFDAQAWYARDVILGRISLPGKAEMQAENQAWREREEKLQTAQEMFEFQGSYIQHLIDATDYPSFDIQAVNETFLAWKHDKYEDIMGYRNKCYRSLMTGTLATPHHTPWLDALDDSLEAYLQETPRLKSAV
B9: enzyme M389A (Pediococcus pentosaceus, UniProt A0AB73HHR8); chain MKNYTDYFFDEQAFDLHDGGYVPLEVSDAPEKPLNVPPLLKPDKETATDVYYTVTAEAGETQLLPGAKTKTWGYNTSLLGQTIVYRRGQHTHVTLKNTLPELTTFHWHGANVSGPYVDGGCHAPVYPGESKHIDFTLEQPATTLWLHAHPCPSTAEQVWHGLAAMVIVKDDHEASLPLPRNYGVDDIPVILQDRRFHENNQWDYRADYDPDGVAGPTAMINGTINPYFDVTTQKVRLRFLDGANRREWRLHFSDDLPFTQIGGDGSLLPEPVKFTHLMLTCAERAEVIVDFGQYHEGDEVTLYTDDVPLLKFRIHAFKPDQTTLPDKLFDVKAPVVDPALPVRHVVMQGMDEGVAIDGKKFAMQRIDATQPIGKAQYWDVTNSNDAPGAVHPFHVHGTQFLVLSRNGHAPYPNEHGFKDTIGVNPGETVRLLVRFDLPGVYMYHCHIIEHEDGGMMAQIETFDPAKPKQEYKLMDMDTLMMALAKERGVKPSEIWMGGMQSYEKMGMKM
B10: enzyme D25A (Nitrosopumilus maritimus, UniProt A9A5X4); chain MDSQKFDSIIFDCDGVLVDITQSYAKTIDKTCRYVLKEFAKIDSITIDHKIIDGFKSSGGFNDEVDLVYAAILSLYTANKLNKKPSEFIYDVISNTDKTGIRSVQSYLESIYDVSEFLSKLGSLGDRHNNPVYSIFDQFFFGPELYGKLFDKQSKFSEEGMISNDKVILSVSLLETLQKEFGKKIAVVTGRGIESIRYSLKDMMDYFDTKNSAFLEDEPRELAKPNPATLIRAIQSMESKNCLYVGDSMEDYMMAKDAAQAGHSTTFCAIVGTSTNPEDRRKLFADSGVEMILESINDIPKVLNLV
Chain of UniProt Q00416 (whole entry, looked up): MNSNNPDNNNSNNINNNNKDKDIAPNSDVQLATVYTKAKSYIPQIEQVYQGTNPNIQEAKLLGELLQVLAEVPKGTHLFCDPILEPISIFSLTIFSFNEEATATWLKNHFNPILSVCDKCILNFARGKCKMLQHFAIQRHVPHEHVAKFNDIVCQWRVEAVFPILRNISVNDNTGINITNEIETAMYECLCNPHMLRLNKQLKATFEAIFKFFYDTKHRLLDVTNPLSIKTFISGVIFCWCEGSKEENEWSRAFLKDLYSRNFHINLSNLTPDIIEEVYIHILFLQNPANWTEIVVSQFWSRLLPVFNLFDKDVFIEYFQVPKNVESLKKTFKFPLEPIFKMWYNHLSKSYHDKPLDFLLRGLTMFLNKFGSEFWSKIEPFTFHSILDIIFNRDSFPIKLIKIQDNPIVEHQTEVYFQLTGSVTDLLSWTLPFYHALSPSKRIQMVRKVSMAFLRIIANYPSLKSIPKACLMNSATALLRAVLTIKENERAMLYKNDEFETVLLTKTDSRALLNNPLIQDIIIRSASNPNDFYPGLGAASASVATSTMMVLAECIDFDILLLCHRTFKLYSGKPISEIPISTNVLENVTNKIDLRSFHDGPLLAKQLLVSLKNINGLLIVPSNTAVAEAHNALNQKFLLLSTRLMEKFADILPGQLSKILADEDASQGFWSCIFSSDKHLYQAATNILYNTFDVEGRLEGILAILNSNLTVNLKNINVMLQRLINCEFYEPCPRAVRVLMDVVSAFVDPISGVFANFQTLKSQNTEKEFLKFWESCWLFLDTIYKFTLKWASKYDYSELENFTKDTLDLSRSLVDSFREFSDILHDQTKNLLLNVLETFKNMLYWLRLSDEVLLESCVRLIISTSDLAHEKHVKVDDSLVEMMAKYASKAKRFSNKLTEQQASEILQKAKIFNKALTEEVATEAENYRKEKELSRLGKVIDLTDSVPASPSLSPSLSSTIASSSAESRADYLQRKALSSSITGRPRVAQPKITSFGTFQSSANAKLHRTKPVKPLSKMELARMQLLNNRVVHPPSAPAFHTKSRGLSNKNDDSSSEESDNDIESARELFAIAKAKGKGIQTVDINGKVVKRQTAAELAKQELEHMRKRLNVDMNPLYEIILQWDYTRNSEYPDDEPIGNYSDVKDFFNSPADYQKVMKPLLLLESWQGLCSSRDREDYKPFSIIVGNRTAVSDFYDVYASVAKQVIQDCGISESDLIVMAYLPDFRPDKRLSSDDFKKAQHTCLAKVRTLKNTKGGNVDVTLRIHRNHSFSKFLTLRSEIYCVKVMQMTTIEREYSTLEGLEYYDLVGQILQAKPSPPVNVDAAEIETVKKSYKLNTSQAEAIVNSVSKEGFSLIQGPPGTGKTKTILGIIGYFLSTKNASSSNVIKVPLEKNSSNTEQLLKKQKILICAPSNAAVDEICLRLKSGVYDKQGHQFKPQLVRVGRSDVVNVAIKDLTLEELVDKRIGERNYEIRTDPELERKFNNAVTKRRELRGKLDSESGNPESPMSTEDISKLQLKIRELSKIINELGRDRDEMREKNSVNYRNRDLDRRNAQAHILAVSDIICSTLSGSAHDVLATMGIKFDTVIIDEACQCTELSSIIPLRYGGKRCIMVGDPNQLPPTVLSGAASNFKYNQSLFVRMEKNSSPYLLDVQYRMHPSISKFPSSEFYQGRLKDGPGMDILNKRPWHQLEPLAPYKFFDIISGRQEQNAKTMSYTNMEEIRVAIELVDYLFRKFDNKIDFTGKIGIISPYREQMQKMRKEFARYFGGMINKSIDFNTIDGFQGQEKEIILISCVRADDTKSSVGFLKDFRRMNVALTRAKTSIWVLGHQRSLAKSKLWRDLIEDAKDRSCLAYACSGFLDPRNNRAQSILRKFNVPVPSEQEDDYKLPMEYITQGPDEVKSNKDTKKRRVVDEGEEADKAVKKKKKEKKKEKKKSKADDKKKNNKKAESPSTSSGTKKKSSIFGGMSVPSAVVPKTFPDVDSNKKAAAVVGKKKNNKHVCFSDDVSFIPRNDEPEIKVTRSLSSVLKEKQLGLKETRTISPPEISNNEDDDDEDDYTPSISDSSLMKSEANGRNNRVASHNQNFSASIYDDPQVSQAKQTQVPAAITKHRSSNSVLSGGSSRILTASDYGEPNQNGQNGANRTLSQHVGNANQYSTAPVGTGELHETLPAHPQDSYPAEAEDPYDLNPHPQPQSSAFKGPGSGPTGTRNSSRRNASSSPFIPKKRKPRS

Molecule = B1 (spt); substrate = CCCCCCCCCCCCCCCC(=O)SCCNC(=O)CCNC(=O)[C@H](O)C(C)(C)COP(=O)(O)OP(=O)(O)OC[C@H]1O[C@@H](n2cnc3c(N)ncnc32)[C@H](O)[C@@H]1OP(=O)(O)O; conditions = together with: PLP; Km = 41 µM
Molecule = enzyme (UniProt A0A097IUD8); substrate = Nc1ncnc2c1ncn2[C@@H]1O[C@H](COP(=O)(O)OP(=O)(O)O)[C@@H](O)[C@H]1O; conditions = pH 6, 25 °C, together with: 16 mM PEP; Km = 100 µM
Molecule = enzyme N248Y/R246H (Arabidopsis thaliana, UniProt O24495); substrate = C[C@@H](O)C(=O)SC[C@H](NC(=O)CC[C@H](N)C(=O)O)C(=O)NCC(=O)O; conditions = pH 7.2, 25 °C; Km = 295 µM
Molecule = B2 (nudC); substrate = Nc1ncnc2c1ncn2[C@@H]1O[C@H](COP(=O)(O)OP(=O)(O)OP(=O)(O)OP(=O)(O)OP(=O)(O)OC[C@H]2O[C@@H](n3cnc4c(N)ncnc43)[C@H](O)[C@@H]2O)[C@@H](O)[C@H]1O; conditions = together with: Mg2+; Km = 15 µM
Molecule = B3 (enzyme K234A); substrate = Nc1ncnc2c1ncn2[C@@H]1O[C@H](COP(=O)(O)OP(=O)(O)OP(=O)(O)O)[C@@H](O)[C@H]1O; conditions = pH 8.5, 25 °C, apparent, anoxic, together with: L-Thr 10 mM; Km = 96 µM
Molecule = enzyme (Oryza sativa, UniProt Q6ZGQ4); substrate = O=[N+]([O-])c1ccc(O[C@@H]2OC[C@H](O)[C@H](O)[C@H]2O)cc1; conditions = pH 4, 40 °C, apparent; Km = 84000 µM
Molecule = acsA D449E/I222V (Pseudomonas chlororaphis); substrate = CCCC(=O)O; conditions = pH 7; Km = 120 µM
Molecule = B4 (RABE1C); substrate = Nc1nc2c(ncn2[C@@H]2O[C@H](COP(=O)(O)OP(=O)(O)OP(=O)(O)O)[C@@H](O)[C@H]2O)c(=O)[nH]1; conditions = pH 7.5, 30 °C; Km = 9690 µM
Molecule = B5 (pdc); substrate = CC(=O)C(=O)O; conditions = pH 6, 30 °C; Km = 310 µM
Molecule = B6 (pyrB); substrate = NC(=O)OP(=O)(O)O; Km = 28 µM
Molecule = B7 (enzyme E11H/K10H/Q8H); substrate = NC(=O)c1ccc[n+]([C@@H]2O[C@H](COP(=O)(O)OP(=O)(O)OC[C@H]3O[C@@H](n4cnc5c(N)ncnc54)[C@H](O)[C@@H]3O)[C@@H](O)[C@H]2O)c1; conditions = pH 8, apparent, cofactor varied; Km = 50 µM
Molecule = enzyme (Cryptosporidium parvum, UniProt Q8IS93); substrate = O=C(O)c1cc(SSc2ccc([N+](=O)[O-])c(C(=O)O)c2)ccc1[N+](=O)[O-]; conditions = pH 7.4, together with: NADPH 150 µM; Km = 1280 µM
Molecule = B8 (enzyme); substrate = NC(=O)C1=CN([C@@H]2O[C@H](COP(=O)(O)OP(=O)(O)OC[C@H]3O[C@@H](n4cnc5c(N)ncnc54)[C@H](OP(=O)(O)O)[C@@H]3O)[C@@H](O)[C@H]2O)C=CC1; conditions = pH 7, 30 °C, cofactor varied; Km = 22.3 µM
Molecule = B9 (enzyme M389A); substrate = CCn1c(=NN=c2sc3cc(S(=O)(=O)O)ccc3n2CC)sc2cc(S(=O)(=O)O)ccc21; conditions = pH 3.7, 24 °C; Km = 110 µM
Molecule = SEN1 (Saccharomyces cerevisiae, UniProt Q00416); substrate = Nc1ncnc2c1ncn2[C@@H]1O[C@H](COP(=O)(O)OP(=O)(O)OP(=O)(O)O)[C@@H](O)[C@H]1O; conditions = pH 7.5, 28 °C; Km = 26 µM
Molecule = B10 (enzyme D25A); substrate = N[C@H](COP(=O)(O)O)Cc1c[nH]cn1; conditions = pH 7.8, 25 °C; Km = 582 µM

For quick reference, copied from above:
Molecule = B3 (enzyme K234A); substrate = Nc1ncnc2c1ncn2[C@@H]1O[C@H](COP(=O)(O)OP(=O)(O)OP(=O)(O)O)[C@@H](O)[C@H]1O; conditions = pH 8.5, 25 °C, apparent, anoxic, together with: L-Thr 10 mM; Km = 96 µM
